Published values pooled from the literature.
Lines come from different studies, so protocols differ. Values joined by “and” are separate records of one study, mostly repeats; a detail may differ. ± gives the spread as reported.

Compound = Clc1ccc(-c2ccccc2)cc1; system = rat Sprague-Dawley female, serum; setting = inhalation, 35 µg/rat, 24 h; measurement = serum CO2; value = 25 ± 1 mmol/L
Compound = CCc1ccc(CC/C=C/c2ccc3c(c2)C(=O)CC3)cc1; system = Sprague-Dawley rat, female; setting = oral, 30 mg/kg/day, 14 days; measurement = TC; value = 1.52 mM
Compound = CC(C)=CC1C(C(=O)OC(C#N)c2cccc(Oc3ccccc3)c2)C1(C)C (centres unmarked); test = refers to: CYP2C8; system = human, age 5 years; measurement = enzyme contribution to clearance; value = 5.61%
Compound = CC(C)[C@@H]1NC(=O)CNC(=O)[C@H](CC(N)=O)NC(=O)[C@H](CCCNC(=N)N)NC(=O)[C@H](Cc2ccc(O)cc2)NC(=O)[C@H](C(C)C)NC(=O)[C@@H](NC(=O)[C@@H](NC(=O)[C@H](CC(N)=O)NC(=O)[C@H](Cc2c[nH]c3ccccc23)NC(=O)[C@H](C)NC(=O)[C@H](Cc2ccccc2)NC(=O)CN)C(C)C)CSSC[C@@H](C(=O)N[C@@H](Cc2cnc[nH]2)C(=O)N[C@@H](CCCNC(=N)N)C(=O)N[C@@H](CCCNC(=N)N)C(=O)N[C@@H](C)C(=O)N[C@@H](CC(N)=O)C(N)=O)NC(=O)[C@H](C(C)C)NC(=O)[C@H](CCCNC(=N)N)NC1=O; system = ICR mouse, blood; setting = intramammary, 10 mg/kg, day 5, 3 d dosing; measurement = eosinophils; value = 2.18 ± 0.05%
Compound = O=C(Nc1ccccc1)C1CCN(C(=O)Oc2cccnc2)CC1; system = healthy women; setting = oral, 100 mg, 9 days; measurement = adverse event Fatigue; value = 46.2%
Compound = N[C@@H]1c2ccccc2OC12CCN(c1cnc3c(N4CCCc5ncccc54)n[nH]c3n1)CC2; system = patients advanced metastatic solid tumours; setting = oral, 60 mg once daily, RP2D expansion phase; measurement = incidence grade ≥3 serious TEAE; value = 30%
Compound = Cc1cccc(Cn2nc(C3CC3)c3c(NC(=O)c4cnc5cc(OCCN6CCN(C)CC6)ccn45)cccc32)n1; test = refers to: Vomiting; system = human advanced solid tumours; setting = oral, 400 mg, all-causality; measurement = adverse events incidence; value = 14.3%
Compound = Cn1cncc1-c1c(F)cncc1NC(=O)c1c(N)nn2cc(F)cnc12; system = human patients; setting = oral, 80 mg once daily; measurement = grade ≥3 hyperkalaemia incidence; value = 0%
Compound = CC[C@H](C)[C@H](NC(=O)[C@H](Cc1ccccc1)NC(=O)[C@H](CCC(=O)O)NC(=O)[C@H](CCCNC(=N)N)NC(=O)[C@H](C)NC(=O)[C@H](C)NC(=O)[C@H](CCC(N)=O)NC(=O)[C@H](CCC(=O)O)NC(=O)[C@H](CCC(=O)O)NC(=O)[C@H](CC(C)C)NC(=O)[C@H](Cc1ccc(O)cc1)NC(=O)[C@H](CO)NC(=O)[C@H](CO)NC(=O)[C@@H](NC(=O)[C@H](CC(=O)O)NC(=O)[C@H](CO)NC(=O)[C@@H](NC(=O)[C@H](Cc1ccccc1)NC(=O)[C@@H](NC(=O)CNC(=O)[C@H](CCC(=O)O)NC(=O)[C@H](C)NC(=O)CCc1cnc[nH]1)[C@@H](C)O)[C@@H](C)O)C(C)C)C(=O)N[C@@H](C)C(=O)N[C@@H](Cc1c[nH]c2ccccc12)C(=O)N[C@@H](CC(C)C)C(=O)N[C@H](C(=O)N[C@@H](CCCNC(=N)N)C(=O)NCC(=O)N[C@@H](CCCNC(=N)N)C(=O)N[C@@H](CCCCNC(=O)COCCOCCNC(=O)COCCOCCNC(=O)CC[C@H](NC(=O)CCCCCCCCCCCCCCCCC(=O)O)C(=O)O)C(=O)NCC(=O)NCC(=O)N[C@@H](CO)C(=O)N[C@@H](CCCCNC(=O)[C@H](CCCCNc1c(NCCCCCN(O)C(=O)CCC(=O)NCCCCCN(O)C(=O)CCC(=O)NCCCCCN(O)C(C)=O)c(=O)c1=O)Nc1c(NCCCCCN(O)C(=O)CCC(=O)NCCCCCN(O)C(=O)CCC(=O)NCCCCCN(O)C(C)=O)c(=O)c1=O)C(=O)O)C(C)C [zirconium-89 labelled]; test = ex vivo gamma counting; system = Sprague-Dawley rat, male, brain; setting = intravenous, 1 nmol, 24 h; measurement = tissue uptake; value = 0.014 %ID/g and 0.017 %ID/g and 0.018 %ID/g
Compound = COc1ncccc1-c1cnn2ccc(N3CCN(C(=O)OC(C)C)CC3)nc12; system = mouse, open field test, brain; setting = oral, 60 mg/kg, 60 min; measurement = drug concentration; value = 60 µM
Compound = O=S(=O)(Nc1ccccc1)c1ccc(NC(=S)Nc2ccccc2)cc1; test = refers to: RDW; system = male mouse, blood; setting = oral, 20 mg/kg daily, 14 days; measurement = blood cell fraction; value = 16.3%
Compound = C=CCNc1c(O)cc2c(O)c1C[C@@H](C)C[C@H](OC)[C@H](O)[C@@H](C)/C=C(\C)[C@H](OC(N)=O)[C@@H](OC)/C=C\C=C(/C)C(=O)N2; system = unresectable or metastatic STS, GIST, other; setting = intravenous, 500 mg/m^2; measurement = patients with back pain TEAE; value = 0%
Compound = COc1cc(C2C3=C(COC3=O)N(CCO)c3cc4c(cc32)CCC4)cc(OC)c1OC (centres unmarked); system = female C57BL/6 mice; setting = intraperitoneal, 200 mg/kg, 72 h, single dose, mean; measurement = body weight; value = 23 g
Compound = CCCC(CCC)NC(=O)c1ccc2c(c1)OCO2; system = Swiss albino CD-1 mice, male, bone marrow; setting = intraperitoneal, 350 mg/kg, 24 h; measurement = micronucleated PCEs; value = 0.1%
Compound = CC(C)c1ccc(N=Nc2ccc3[nH]cc(CCN(C)C)c3c2)cc1; test = light irradiation; system = solution; setting = added: light 530 nm; measurement = trans isomer at photostationary state; value = 87%
Compound = CC(=O)c1c(C)c2cnc(Nc3ccc(C4CCN(CCS(C)(=O)=O)CC4)cn3)nc2n(C2CCCC2)c1=O; system = human, plasma; setting = oral, 75 mg twice daily, day 21, multiple doses, added: fulvestrant; measurement = t1/2; value = 554 min
Compound = CC(C)(O)c1cc(Nc2cc(Oc3cn(C4CC4)nc3C3CCOCC3)ccn2)ccn1; test = Pyrexia; system = advanced cancer patients, grade 4 glioma expansion; setting = oral, 50 mg twice daily, all causality any grade; measurement = treatment-emergent adverse events; value = 5%
Compound = CCCCCCCCCCCCCCCC(=O)N[C@@H](CCC(=O)NCCCC[C@H](NC(=O)[C@H](CC(=O)O)NC(=O)[C@H](CO)NC(=O)[C@@H](NC(=O)[C@H](Cc1ccccc1)NC(=O)[C@@H](NC(=O)CNC(=O)[C@H](CCC(N)=O)NC(=O)[C@H](CO)NC(=O)[C@@H](N)Cc1c[nH]cn1)[C@@H](C)O)[C@@H](C)O)C(=O)N[C@@H](CO)C(=O)N[C@@H](CCC(=O)O)C(=O)N[C@@H](Cc1ccc(O)cc1)C(=O)N[C@@H](CC(C)C)C(=O)N[C@@H](CC(=O)O)C(=O)N[C@@H](CO)C(=O)N[C@@H](CCC(=O)O)C(=O)N[C@@H](CCCNC(=N)N)C(=O)N[C@@H](C)C(=O)N[C@@H](CCCNC(=N)N)C(=O)N[C@@H](CC(=O)O)C(=O)N[C@@H](Cc1ccccc1)C(=O)N[C@H](C(=O)N[C@@H](C)C(=O)N[C@@H](Cc1c[nH]c2ccccc12)C(=O)N[C@@H](CC(C)C)C(=O)N[C@@H](CCC(=O)O)C(=O)N[C@@H](C)C(=O)NCC(=O)NCC(=O)O)C(C)C)C(=O)O; system = human, all renal groups; setting = sc, 100 µg single dose; measurement = injection site bruising; value = 2.7%
Compound = NC(=O)[C@H]1CCN(c2ncnc(N)c2F)C[C@@H]1N1CCC[C@@H](Nc2cc(Cl)cc(C(F)(F)F)c2)C1=O; system = B-cell malignancy patients; setting = oral, 82 mg twice daily, dose; measurement = grade ≥3 lymphopenia; value = 0%
Compound = C[C@@H](NC(=O)N1C(=O)[C@H](Cc2ccnc(N)c2)[C@H]1C(=O)O)C1CCCCC1; system = healthy adult Chinese volunteers; setting = continuous intravenous infusion, 0.3 mg/kg/h, 5-day infusion, CTCAE 5.0 grading; measurement = incidence of urine ketone body positive; value = 0%
Compound = Cn1cc(-c2nc(N[C@@H]3CCCC[C@@H]3N)c(F)c3c2C(=O)NC3)cn1; test = refers to: Melaena; system = patients with relapsed or refractory AML; setting = oral, 60 mg twice daily; measurement = hemorrhagic adverse events; value = 13%
Compound = C[C@]1(CO)Cc2ncn(-c3ccc(C#N)c(Cl)c3)c2C(=O)O1; system = human; setting = 80 mg single dose; measurement = subjects with drug-related orthostatic hypotension; value = 0%
Compound = CC(C)CC(=O)OC[C@H]1O[C@@](C#N)(c2ccc3c(N)ncnn23)[C@H](O)[C@@H]1O; system = human plasma; setting = 9 µM; measurement = fraction unbound; value = 0.198
Compound = CO[C@H]1C[C@@H]2CC[C@@H](C)[C@@](O)(O2)C(=O)C(=O)N2CCCC[C@H]2C(=O)O[C@H]([C@H](C)C[C@@H]2CC[C@@H](OC(=O)NCCOCCOCCOCCOCCOCCOCCOCCOCCC(=O)N3CCc4cc(Cn5nc(-c6ccc7oc(N)nc7c6)c6c(N)ncnc65)ccc4C3)[C@H](OC)C2)C[C@@H](O)[C@H](C)/C=C(\C)[C@@H](O)[C@@H](OC)C(=O)[C@H](C)C[C@H](C)/C=C/C=C/C=C/1C; test = phase 1 dose escalation; system = advanced solid tumour patients; setting = intravenous, 6 mg weekly, grade ≥3; measurement = AEs causing dose modification; value = 41.7%
Compound = C[C@]1(O)C[C@@](N)(c2ccc(-c3nc4n(c3-c3ccccc3)COc3ccncc3-4)cc2)C1; system = human, advanced or metastatic solid tumours; setting = 24 mg intermittent, phase I dose escalation; measurement = patients with serious AE; value = 50%
Compound = N#C/N=C1\SCCN1Cc1ccc(Cl)nc1; system = soil; setting = 28 days, nominal 1.1; measurement = recovery; value = 4.54%
Compound = O=c1ccc2ncc(=O)n3c2n1C[C@H]3CN1CCC(NCc2cc3c(cn2)OCCC3)CC1; system = healthy human volunteers, plasma; setting = oral, dose not given, arithmetic mean, added: rifampicin; measurement = AUC(0-t); value = 9800 ng·h/mL
Compound = CCN1[C@@H](C(=O)NC23CCC(C(=O)O)(CC2)CC3)[C@H](c2cccc(Cl)c2F)[C@]2(C(=O)Nc3cc(Cl)ccc32)C12CCCCC2; system = patients with advanced solid tumours; setting = oral, 150 mg; measurement = Tinnitus incidence; value = 0%
Compound = COc1cc2c(Oc3ccc4[nH]c(C)cc4c3F)ccnc2cc1OCC1(N)CC1; system = paediatric recurrent refractory sarcoma; setting = 8 mg; measurement = grade 1 or 2 abdominal distension; value = 0%
Compound = Oc1c(Cl)cc2c(c1Cl)Oc1cc(Cl)c(Cl)cc1O2; test = ultrafiltration; system = cow milk whey; setting = 500 nM nominal in whole milk; measurement = final permeate concentration; value = 47.3 nM
Compound = COc1ccc(N2CCN(CCCNC(=O)c3cc(Nc4ccc(OC)cc4OC)nc4ccccc34)CC2)cc1; target or system = Vero-E6; test = CellTiter-Glo ATP; setting = 72 h, second round 5-point; how to read = reference: DMSO 0%, hyamine -100%, more negative, more toxic; measurement = maximum response; value = -13.6%
Compound = Clc1nc[n]([Au][PH](c2ccccc2)(c2ccccc2)c2ccccc2)c1Cl; system = NCG mice; setting = intraperitoneal, 3 mg/kg single dose, 24 h; measurement = body weight; value = 23.2 g and 22.8 g
Compound = C[C@H]1CN(C(=O)CC#N)[C@]12CCN(c1ncnc3[nH]ccc13)C2; system = minipig, male; setting = dermal, 20 mg/kg repeated, 9 months; measurement = Cmax at NOAEL; value = 9.9 ng/mL
Compound = COc1cccc(-c2ccccc2NC(=O)C2CCN(Cc3ccccc3F)CC2)c1; target or system = Vero-E6; test = CellTiter-Glo ATP; setting = concentration not given, 72 h, first round 5-point; how to read = reference: DMSO 0%, hyamine -100%, more negative, more toxic; measurement = cytotoxicity efficacy; value = 0%
Compound = CC(C)C[C@H](NC(=O)[C@H](CCCCN)NC(=O)OCC1c2ccccc2-c2ccccc21)C(=O)N[C@H](C(=O)N[C@@H](Cc1ccccc1)C(=O)N[C@@H](Cc1ccccc1)C(=O)N[C@@H](CCCCN)C(=O)NCC(=O)N[C@@H](Cc1ccccc1)C(=O)N[C@@H](C)C(=O)N[C@@H](Cc1c[nH]c2ccccc12)C(=O)N[C@@H](CC(N)=O)C(=O)N[C@H](C(=O)N[C@H]1CSSC[C@@H](C(=O)N[C@@H](Cc2c[nH]cn2)C(=O)N[C@@H](CCCNC(=N)N)C(=O)N[C@@H](CCCNC(=N)N)C(=O)N[C@@H](C)C(=O)N[C@@H](CC(N)=O)C(N)=O)NC(=O)[C@H](C(C)C)NC(=O)[C@H](CCCNC(=N)N)NC(=O)[C@H](C(C)C)NC(=O)CNC(=O)[C@H](CC(N)=O)NC(=O)[C@H](CCCNC(=N)N)NC(=O)[C@H](Cc2ccc(O)cc2)NC(=O)[C@H](C(C)C)NC1=O)C(C)C)C(C)C; system = ICR mouse, blood; setting = intramammary, 5 mg/kg, day 5, 3 d dosing; measurement = eosinophils; value = 2.3 ± 0.16%
